Experimental data from different studies.
Several values in a cell are separate wells, animals, samples, runs or records. ± gives the spread as reported.
TOP2A: DNA topoisomerase 2-alpha (TOP2A, Homo sapiens, UniProt P11388)
Chain of UniProt P11388 (whole entry, looked up): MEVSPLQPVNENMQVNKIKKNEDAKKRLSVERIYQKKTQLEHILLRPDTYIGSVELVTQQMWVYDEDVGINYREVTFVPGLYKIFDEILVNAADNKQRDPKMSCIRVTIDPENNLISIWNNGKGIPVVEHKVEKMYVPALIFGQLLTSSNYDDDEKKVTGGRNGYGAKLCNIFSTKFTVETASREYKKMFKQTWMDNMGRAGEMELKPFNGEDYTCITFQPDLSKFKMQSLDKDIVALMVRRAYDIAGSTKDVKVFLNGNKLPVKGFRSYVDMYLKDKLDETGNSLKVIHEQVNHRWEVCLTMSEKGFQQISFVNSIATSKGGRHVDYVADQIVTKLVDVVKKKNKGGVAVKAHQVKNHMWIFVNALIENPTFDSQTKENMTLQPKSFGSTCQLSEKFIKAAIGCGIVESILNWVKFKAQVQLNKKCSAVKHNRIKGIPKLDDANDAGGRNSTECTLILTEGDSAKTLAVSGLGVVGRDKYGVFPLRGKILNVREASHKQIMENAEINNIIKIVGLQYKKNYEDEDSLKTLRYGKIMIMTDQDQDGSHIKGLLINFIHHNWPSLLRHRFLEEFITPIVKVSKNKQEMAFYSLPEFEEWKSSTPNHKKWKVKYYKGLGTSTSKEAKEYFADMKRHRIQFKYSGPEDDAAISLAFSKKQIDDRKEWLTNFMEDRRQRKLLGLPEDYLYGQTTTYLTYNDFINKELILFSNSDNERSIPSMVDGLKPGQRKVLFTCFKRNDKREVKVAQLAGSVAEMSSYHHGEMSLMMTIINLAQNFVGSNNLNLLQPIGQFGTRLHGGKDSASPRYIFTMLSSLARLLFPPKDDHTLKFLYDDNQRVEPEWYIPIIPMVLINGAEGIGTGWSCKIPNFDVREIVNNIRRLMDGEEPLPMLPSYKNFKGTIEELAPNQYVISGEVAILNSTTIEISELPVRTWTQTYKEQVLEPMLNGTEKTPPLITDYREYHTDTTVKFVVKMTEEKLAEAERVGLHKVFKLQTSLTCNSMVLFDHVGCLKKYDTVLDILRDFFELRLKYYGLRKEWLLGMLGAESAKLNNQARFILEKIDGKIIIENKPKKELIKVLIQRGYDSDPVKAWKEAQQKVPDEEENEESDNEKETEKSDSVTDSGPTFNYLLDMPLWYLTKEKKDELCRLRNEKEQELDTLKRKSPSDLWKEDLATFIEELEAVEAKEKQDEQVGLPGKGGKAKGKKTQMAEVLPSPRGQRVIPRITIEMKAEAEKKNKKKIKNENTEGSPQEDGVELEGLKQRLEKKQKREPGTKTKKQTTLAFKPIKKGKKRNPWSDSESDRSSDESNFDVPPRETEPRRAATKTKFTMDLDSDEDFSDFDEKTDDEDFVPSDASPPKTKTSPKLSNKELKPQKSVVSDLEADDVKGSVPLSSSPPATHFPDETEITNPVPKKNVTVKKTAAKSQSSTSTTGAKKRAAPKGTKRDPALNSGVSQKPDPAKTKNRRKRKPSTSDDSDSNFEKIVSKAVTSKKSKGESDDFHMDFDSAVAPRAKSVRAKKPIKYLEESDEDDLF
Pteridine reductase 1: Pteridine reductase 1 (Leishmania major, UniProt Q01782)
Chain of UniProt Q01782 (whole entry, looked up): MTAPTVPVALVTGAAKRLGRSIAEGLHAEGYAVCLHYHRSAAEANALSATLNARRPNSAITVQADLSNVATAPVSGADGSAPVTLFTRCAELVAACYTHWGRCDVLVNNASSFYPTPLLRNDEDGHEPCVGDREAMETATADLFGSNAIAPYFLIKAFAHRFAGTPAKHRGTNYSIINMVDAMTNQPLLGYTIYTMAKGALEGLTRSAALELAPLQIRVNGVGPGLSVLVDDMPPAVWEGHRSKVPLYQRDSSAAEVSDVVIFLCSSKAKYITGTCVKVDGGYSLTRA
Cereblon/Ikaros: Cereblon/Ikaros (Homo sapiens, UniProt Q13422+Q96SW2)
Chain of UniProt Q96SW2 (whole entry, looked up): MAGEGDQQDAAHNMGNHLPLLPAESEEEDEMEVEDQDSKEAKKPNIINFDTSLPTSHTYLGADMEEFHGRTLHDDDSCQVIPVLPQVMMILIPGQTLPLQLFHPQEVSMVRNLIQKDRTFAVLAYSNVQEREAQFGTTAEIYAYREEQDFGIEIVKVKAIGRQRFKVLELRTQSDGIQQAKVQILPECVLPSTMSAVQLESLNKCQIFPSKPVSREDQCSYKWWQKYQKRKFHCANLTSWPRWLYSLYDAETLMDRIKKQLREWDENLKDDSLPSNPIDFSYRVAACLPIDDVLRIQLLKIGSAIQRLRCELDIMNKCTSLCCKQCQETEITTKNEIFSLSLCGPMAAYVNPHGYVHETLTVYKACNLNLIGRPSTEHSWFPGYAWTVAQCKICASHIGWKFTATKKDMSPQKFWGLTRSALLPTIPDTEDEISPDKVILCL
BEST2: Bestrophin-2a (BEST2, Homo sapiens, UniProt Q8NFU1)
Chain of UniProt Q8NFU1 (whole entry, looked up): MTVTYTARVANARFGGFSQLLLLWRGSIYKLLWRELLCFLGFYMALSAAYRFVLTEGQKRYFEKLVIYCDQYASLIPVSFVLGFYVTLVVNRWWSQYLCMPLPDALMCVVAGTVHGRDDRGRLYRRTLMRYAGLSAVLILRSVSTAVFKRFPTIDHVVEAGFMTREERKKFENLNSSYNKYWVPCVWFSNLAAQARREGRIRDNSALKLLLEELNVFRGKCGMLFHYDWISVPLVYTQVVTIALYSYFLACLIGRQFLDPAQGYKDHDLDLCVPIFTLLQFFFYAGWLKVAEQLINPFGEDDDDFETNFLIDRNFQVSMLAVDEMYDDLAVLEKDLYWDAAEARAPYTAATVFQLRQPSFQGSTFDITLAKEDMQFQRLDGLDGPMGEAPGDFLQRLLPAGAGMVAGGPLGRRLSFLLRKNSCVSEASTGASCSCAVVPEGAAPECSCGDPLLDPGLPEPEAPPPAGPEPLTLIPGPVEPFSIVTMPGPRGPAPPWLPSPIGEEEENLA
ATP2A2: ATP2A2 (Sus scrofa, UniProt P11607)
T1: G-quadruplex RNA (Homo sapiens); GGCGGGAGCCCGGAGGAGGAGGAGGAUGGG
Chain of UniProt P51575 (whole entry, unmodified, looked up): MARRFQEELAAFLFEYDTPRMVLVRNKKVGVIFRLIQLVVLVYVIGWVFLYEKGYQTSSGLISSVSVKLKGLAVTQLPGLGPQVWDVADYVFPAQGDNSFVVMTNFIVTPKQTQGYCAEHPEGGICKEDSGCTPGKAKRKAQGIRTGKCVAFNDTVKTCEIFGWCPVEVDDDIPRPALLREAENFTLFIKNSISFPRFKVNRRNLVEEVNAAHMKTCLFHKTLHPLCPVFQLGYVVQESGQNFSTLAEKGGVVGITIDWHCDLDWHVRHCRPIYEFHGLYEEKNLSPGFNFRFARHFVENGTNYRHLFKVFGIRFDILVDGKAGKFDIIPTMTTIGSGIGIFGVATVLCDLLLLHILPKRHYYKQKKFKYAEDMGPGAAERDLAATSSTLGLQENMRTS
Chain of UniProt Q80VM9 (whole entry, looked up): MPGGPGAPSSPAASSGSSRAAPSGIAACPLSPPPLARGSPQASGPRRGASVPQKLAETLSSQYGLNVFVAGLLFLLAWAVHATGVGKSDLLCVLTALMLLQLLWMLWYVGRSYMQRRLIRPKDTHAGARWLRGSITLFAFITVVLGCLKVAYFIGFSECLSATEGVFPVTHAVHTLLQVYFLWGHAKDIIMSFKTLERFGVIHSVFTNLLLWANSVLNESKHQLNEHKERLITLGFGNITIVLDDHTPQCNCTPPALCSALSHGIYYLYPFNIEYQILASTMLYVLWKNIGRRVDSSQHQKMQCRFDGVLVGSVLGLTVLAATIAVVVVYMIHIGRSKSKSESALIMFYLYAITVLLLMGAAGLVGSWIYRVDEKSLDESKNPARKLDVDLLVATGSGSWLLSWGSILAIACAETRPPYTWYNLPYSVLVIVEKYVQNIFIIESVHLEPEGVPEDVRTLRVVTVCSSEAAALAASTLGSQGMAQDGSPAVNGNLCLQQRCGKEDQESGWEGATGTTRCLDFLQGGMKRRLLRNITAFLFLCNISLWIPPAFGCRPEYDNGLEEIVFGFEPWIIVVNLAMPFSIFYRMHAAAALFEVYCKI
Chain of UniProt Q7TMS5 (whole entry, unmodified, looked up): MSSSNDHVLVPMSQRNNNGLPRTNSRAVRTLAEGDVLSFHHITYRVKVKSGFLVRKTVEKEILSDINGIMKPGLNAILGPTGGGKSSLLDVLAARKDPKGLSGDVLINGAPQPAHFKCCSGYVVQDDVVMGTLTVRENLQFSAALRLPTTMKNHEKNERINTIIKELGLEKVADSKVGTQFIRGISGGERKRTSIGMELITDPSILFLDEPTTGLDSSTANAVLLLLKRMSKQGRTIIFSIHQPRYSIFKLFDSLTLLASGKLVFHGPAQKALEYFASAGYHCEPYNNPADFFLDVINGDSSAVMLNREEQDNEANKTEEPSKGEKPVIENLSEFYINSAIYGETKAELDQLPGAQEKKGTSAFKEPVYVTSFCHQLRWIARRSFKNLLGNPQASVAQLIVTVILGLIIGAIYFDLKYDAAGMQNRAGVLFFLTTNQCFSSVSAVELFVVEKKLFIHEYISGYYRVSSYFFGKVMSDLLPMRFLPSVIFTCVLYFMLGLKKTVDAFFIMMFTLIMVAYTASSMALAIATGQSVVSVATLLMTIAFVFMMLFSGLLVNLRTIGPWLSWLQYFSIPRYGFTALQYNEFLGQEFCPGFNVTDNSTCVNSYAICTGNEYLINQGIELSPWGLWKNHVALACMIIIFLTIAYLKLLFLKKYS
Chain of UniProt P18669 (whole entry, looked up): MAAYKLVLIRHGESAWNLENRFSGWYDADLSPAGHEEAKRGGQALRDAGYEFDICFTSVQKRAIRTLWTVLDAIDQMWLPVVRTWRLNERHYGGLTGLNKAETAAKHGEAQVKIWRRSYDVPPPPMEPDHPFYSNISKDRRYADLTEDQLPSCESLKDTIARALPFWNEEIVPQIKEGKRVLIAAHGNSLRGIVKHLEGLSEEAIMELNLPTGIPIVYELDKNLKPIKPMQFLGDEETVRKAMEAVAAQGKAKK
Chain of UniProt P22748 (whole entry, unmodified, looked up): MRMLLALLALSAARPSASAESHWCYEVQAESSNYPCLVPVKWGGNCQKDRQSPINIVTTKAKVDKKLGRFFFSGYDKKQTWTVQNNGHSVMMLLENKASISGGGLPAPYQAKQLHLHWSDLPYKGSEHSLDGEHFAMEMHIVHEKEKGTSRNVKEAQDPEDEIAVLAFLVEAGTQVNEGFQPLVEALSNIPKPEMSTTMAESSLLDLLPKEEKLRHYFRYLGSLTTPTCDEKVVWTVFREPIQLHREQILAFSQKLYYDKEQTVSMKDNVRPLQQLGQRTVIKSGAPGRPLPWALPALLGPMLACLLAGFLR

Compound | target | test | test system | conditions | scale | endpoint | result
Cc1nc(CSc2nc(SCc3ccc(C(F)(F)F)cc3)nc(=O)[nH]2)cs1 | TOP2A | decatenation | – | 125 µM, replicate 1 | – | decatenated DNA | 25.6%
CC1=C(/C=C/C(C)=C/C=C/C(C)=C/C=O)C(C)(C)CCC1 | Rhodopsin (RHO, Bos taurus, UniProt P02699, T94I) | retinal entry, Trp FRET | lipid bicelles | 28 °C, T94I mutant | reference: wild-type rhodopsin | relative kon | 0.823 ± 0.3
Nc1nc(-c2ccc(Cl)c(S(N)(=O)=O)c2)cs1 | CA4 (Homo sapiens, UniProt P22748) | ITC | – | concentration not given, 25 °C | – | intrinsic binding ΔG | -12.3 kcal/mol
O=c1nc(SCc2cc(F)cc(C(F)(F)F)c2)nc(SCc2nc3ccccc3[nH]2)[nH]1 | TOP2A | decatenation | – | 7.8 µM, replicate 1 | – | decatenated DNA | 100%
Cc1cc2c(cc1N1C(=O)c3cccc4c(Cl)ccc(c34)C1=O)n(C)c(=O)n2C | BRD9 (Homo sapiens, UniProt Q9H8M2) | – | – | 10 µM | – | delta Tm | -2.9 °C
Cc1cc(=O)oc2cc(O[C@@H]3O[C@H](CO)[C@@H](O)[C@H](O)[C@H]3O)ccc12 | GBA1 (Homo sapiens, UniProt P04062, R534H) | substrate | – | – | – | Vmax/Km | 0.002 pmol/min/µM
N.N.[Cl-].[Cl-].[Pt+2] | T1, G-quadruplex RNA (Homo sapiens) | SPR | – | 25 °C, KCl 100 mM, folded rG4, covalent | – | Kd | 3.1 µM
O=c1cc(-c2ccc(OS(=O)(=O)O)cc2)oc2cc(OS(=O)(=O)O)cc(OCc3cccc(COc4cc(OS(=O)(=O)O)cc5oc(-c6ccc(OS(=O)(=O)O)cc6)cc(=O)c45)n3)c12 | Neutrophil elastase (ELANE, Homo sapiens, UniProt P08246) | – | – | 1000 nM, with: chromogenic substrate | – | Km | 1670 ± 373 µM
Nc1nc(N)c2nc(CNCc3ccc(Oc4ccccc4)cc3)cnc2n1 | Pteridine reductase 1 | – | – | hDHFR weight 10 | reference: LmPTR1, LmDHFR over hDHFR, 1.0 selective, 0.0 non-selective | partition index | 0.91
Nc1nc2c(ncn2[C@@H]2O[C@H](COP(=O)(O)O)[C@@H](O)[C@H]2O)c(=O)[nH]1 | GUK1 (Homo sapiens, UniProt Q16774, S13A) | binding, ITC | – | – | – | ΔG | -6.05 kcal/mol
CCC(C)(NCCc1ccc(Cl)c(Cl)c1)c1cccc(NC2=CC(=O)N(C3CCC(=O)NC3=O)C2=O)c1 (stereo not shown) | Cereblon/Ikaros | protein degradation, degrader, HiBiT luminescence | Jurkat | – | – | Dmax | 75%
O=C(COP(=O)(O)O)[C@@H](O)[C@H](O)[C@H](O)COP(=O)(O)O | Phosphoglycerate mutase 1 (Homo sapiens, UniProt P18669) | – | – | 0.3125 mM, unit not given | reference: activity at 10 mM set to 100 | enzyme activity | 63.1 and 53.1 and 60.7
CC(C)c1ccc(CSc2nc(SCc3ccc4sccc4c3)[nH]c(=O)n2)cc1 | TOP2A | decatenation | – | 7.8 µM | – | mean decatenated DNA | 100%
O=C(Nc1ncnc2c1ncn2[C@@H]1O[C@@H]2COP(=O)(O)OC2C1O)c1ccccc1 (stereo in doubt) | anti-cGMP antibody | antibody binding, competitive cGMP EIA | – | concentration not given, acetylated samples | reference: EC50 cGMP over EC50 cpd, higher = stronger binding | relative binding affinity | 0.0007
O=c1nc(SCc2cc(F)cc(C(F)(F)F)c2)nc(SCc2ccc3sccc3c2)[nH]1 | TOP2A | ATPase activity | – | 15.6 µM, with: ATP 0.1 mM | – | ATP hydrolysis rate | 0.705 µM/min and 0.519 µM/min
COc1nc(-c2cccc(-c3ccccc3)c2C)ccc1CNCCNC(=O)CCCCCCCCCCCN1CCN(CCNC(=O)c2cc3c(=O)n4cccc(C)c4nc3n(CCc3cccs3)c2=N)CC1 | CD274 (Homo sapiens, UniProt Q9NZQ7) | degrader, western blot | HL-60 | 1 µM | – | degradation | 34.6 ± 3.6%
Cc1nc(NC(=O)N2CCC[C@H]2C(N)=O)sc1-c1ccnc(C(C)(C)C(F)(F)F)c1 | PI4KB (Homo sapiens, UniProt Q9UBF8) | KINOMEscan | – | 10 µM | – | remaining binding | 1.7%
C[C@@H](c1ccc(-n2cnc3c(N)ncnc32)cc1)N1CCc2nn(C)c(Cc3ccccc3)c2C1=O | MAP4K3 (Homo sapiens, UniProt Q8IVH8) | KINOMEscan | – | 0.1 µM | reference: DMSO control | remaining binding | 100%
CCCCCCCC/C=C\CCCCCCCC(=O)NCCc1ccc(O)c(O)c1 | Trpv1 (Mus musculus, UniProt Q704Y3, T551V) | ion current, agonist, whole-cell patch clamp | – | T551V | – | Hill coefficient | 2.35 ± 0.26
CSc1ccc2c(c1)N(CCC1CCCCN1C)c1ccccc1S2 (stereo not shown) | KCNK2 (Homo sapiens, UniProt O95069) | PIP2 binding, BRET competition | – | with: FL-PIP2 500 nM | – | Hill slope | 1.14 ± 0.15
O=c1nc(SCc2cc(F)cc(C(F)(F)F)c2)nc(SCc2csc3ccc(Cl)cc23)[nH]1 | TOP2A | DNA relaxation | – | 31.25 µM | – | mean relaxed DNA | 3.4%
Cc1ccccc1C1CC(=O)c2c(C)nc(N)nc2C1 (stereo not shown) | DDB1 (Homo sapiens, UniProt Q16531) | binding, affinity selection mass spectrometry | – | – | reference: other proteins in batch | log fold enrichment | -0.0483
Nc1ccc(C(=O)O)cc1 | BEST2 | whole-cell patch clamp | HEK293 transiently expressing channel | concentration not given, membrane potential 20 mV | – | current density | 46.5 pA/pF and 65.1 pA/pF and 18 pA/pF and 74.5 pA/pF and 34.6 pA/pF and 59.4 pA/pF
Nc1nc(N)c2c(n1)CCCC2 | folA (Escherichia coli, UniProt P0ABQ4) | conformational gating model | – | – | – | koff from excited state | 179 s⁻¹
O=C(Nc1cccc2ncccc12)C1CCCN(S(=O)(=O)c2cccs2)C1 (stereo not shown) | AASS, LKR domain (Homo sapiens, UniProt Q9UDR5) | binding, surface plasmon resonance | – | 0.5556 µM | – | SPR response | 0.671 RU
O=c1nc(SCc2cc(F)cc(C(F)(F)F)c2)nc(SCc2cccc(C(F)(F)F)c2)[nH]1 | TOP2A | decatenation | – | 31.25 µM | – | mean decatenated DNA | 23.8%

Compound | target | test | test system | conditions | scale | endpoint | result
CC1=CC(=O)c2ccccc2C1=O | TGM2 (Homo sapiens, UniProt P21980) | enzyme activity, inhibitor | – | concentration not given, with: DTT | reference: without DTT over with DTT | potency reduction | ~23 fold
COCCC(=O)N1CCC(Oc2ccccc2)C1 (stereo not shown) | Histone-lysine N-methyltransferase SETDB1, triple tudor domain (SETDB1, Homo sapiens, UniProt Q15047) | binding, affinity selection mass spectrometry | – | – | reference: other proteins in batch | fold enrichment | 0.75
O=c1nc(SCc2ccc(C(F)(F)F)cc2)nc(SCc2ccc3sccc3c2)[nH]1 | TOP2A | decatenation | – | 15.6 µM | – | mean decatenated DNA | 82.6%
O=C(CCCCc1ccc(CO)cc1)C(F)(F)C(F)(F)F | PLA2G6 (Homo sapiens, UniProt O60733) | PLA2 activity | – | – | reference: IC50 GV sPLA2 over IC50 PLA2G6 | selectivity ratio | 362
O=C(O)c1ccc(O)cc1 | BEST2 | whole-cell patch clamp | HEK293 transiently expressing channel | concentration not given, membrane potential -100 mV | – | current density | -101 pA/pF and -290 pA/pF and -169 pA/pF and -270 pA/pF and -152 pA/pF and -260 pA/pF and -320 pA/pF
Oc1ccccc1-c1n[nH]cc1-c1ccnc2ccccc12 | Mitogen-activated protein kinase MKC1 (MKC1, Candida albicans, UniProt P43068) | kinase binding, MIB/MS competition | Candida albicans lysate | 1 µM | reference: DMSO, negative = stronger binding | log2 fold change | 0
COc1ccc2c3c([nH]c2c1)[C@H](CC(C)C)N1C(=O)[C@H](CC(=O)NC(C)C)NC(=O)[C@@H]1C3 | Broad substrate specificity ATP-binding cassette transporter ABCG2 (Mus musculus, UniProt Q7TMS5) | inhibitor, item: protoporphyrin IX | Fech-mutant mice, red blood cells | 10 µM, 1 h | – | efflux | 8.9% and 8.3% and 8.1% and 3% and 8.8% and 2.9%
NNc1ccc2ccccc2c1 | Secernin-3 (Homo sapiens, UniProt Q0VDG4) | gel-based ABPP | HEK-293T lysate | – | reference: IC50 SCRN2 over Secernin-3 | selectivity ratio | 10 fold
Cc1ccc(NC(=O)/C=C/c2cccs2)cc1 | Chrna7 (Rattus norvegicus, UniProt Q05941) | ion current, antagonist | – | holding potential -80 mV, with: acetylcholine 30 µM | – | IC50 | inactive
Fc1cc(CCOCCCCCc2ccccc2)cc2nc[nH]c12 | ATP2A2 | ATPase activity, inhibitor | pig microsomes | concentration not given | reference: vehicle | reduction in Vmax | ~60%
CCC(C)(NCCc1ccc(C(F)(F)F)cc1)c1cccc(NC2=CC(=O)N(C3CCC(=O)NC3=O)C2=O)c1 (stereo not shown) | Cereblon/Ikaros | protein degradation, degrader, HiBiT luminescence | Jurkat | – | – | Dmax | 77%
O=c1nc(SCc2cc(F)cc(C(F)(F)F)c2)nc(SCc2ccc3nc(Cl)ccc3c2)[nH]1 | TOP2A | decatenation | – | 15.6 µM, replicate 2 | – | decatenated DNA | 21.5%
O=C(c1ccc(Nc2nccc(-c3cc4ccccc4s3)n2)cc1)N1CCC(N2CCCC2)CC1 | PKN1 (Homo sapiens, UniProt Q16512) | inhibitor | – | – | – | Hill slope | -0.773
Oc1ccc(/C=C/c2cc(O)cc(O)c2)cc1 | O-methyltransferase (Sorghum bicolor, UniProt A0A1B6PFV1) | – | – | concentration not given, with: SAH+ | – | ΔH of binding | -14.4 ± 0.172 kcal/mol
CCS(=O)(=O)c1nc(C)cc(-c2ccccc2)n1 | KPNB1 (Homo sapiens, UniProt Q14974, C585A) | thermal shift | – | 30 µM, 2 h | – | Tm1 | 43.8 °C
COC(=O)C1CCN(C(=O)c2ccc(NCc3cnc4nc(N)nc(N)c4n3)cn2)CC1 | Pteridine reductase 1 | – | – | hDHFR weight 10 | reference: LmPTR1, LmDHFR over hDHFR, 1.0 selective, 0.0 non-selective | partition index | 0.84
CC(=C/C(=O)O)/C=C/C=C(\C)C1C=C2C(C)(C)CCCC2(C)O1 (stereo not shown) | Rhodopsin (RHO, Homo sapiens, UniProt P08100, T17M) | immunostaining, item: opsin | COS-7 transfected | 50.00 µM, unit not given | reference: surface over total stained cells | plasma membrane localization | 0.97
CC(C)c1noc2ncc(C(=O)c3ccccc3O)cc12 | Otop1 (Mus musculus, UniProt Q80VM9) | alkali-evoked current, whole-cell patch-clamp | – | 10 µM, pH 8.5, third pulse, after pH 8.5 alone | – | normalized current I3/I1 | 1.05 and 1.18 and 0.814
C=CC(=O)N1CCC[C@@H](n2nc(-c3ccc(Oc4ccccc4)cc3)c3c(N)ncnc32)C1 | Ephrin type-A receptor 10 (EPHA10, Homo sapiens, UniProt Q5JZY3) | – | – | 0.1 µM | – | remaining activity | 458%
O=C(O)c1ccc([N+](=O)[O-])cc1 | BEST2 | whole-cell patch clamp | HEK293 transiently expressing channel | concentration not given, membrane potential 60 mV | – | current density | 157 pA/pF and 191 pA/pF and 231 pA/pF and 54.7 pA/pF and 202 pA/pF
O=c1[nH]c(=O)c2nc(O)c(O)nc2[nH]1 | isomerase LA1_0151/LA1_0152 (Cupriavidus sp. LA-1) | substrate | – | pH 7.5, 30 °C | – | Km | 116 ± 3 µM
COC(=O)c1cn(C)c2ccc(-c3cccnc3)cc12 | Bile acid receptor (NR1H4, Homo sapiens, UniProt Q96RI1) | reporter gene, Gal4 hybrid reporter | – | 10 µM | reference: vehicle | activation | 0.81 fold
COc1ccccc1-c1n[nH]c2nc(N[C@H]3CC[C@H](NS(=O)(=O)CCCOCCOCCNC(=O)OC(C)(C)C)CC3)ncc12 | Leishmania donovani RCK (LinJ.27.0100) | resin binding competition | promastigote lysate | 10 µM | reference: DMSO | log2 SILAC ratio heavy/light | 1.81
C[N+]1(C)CCC[C@H]1C(=O)[O-] | Uncharacterized protein (Pelagibacter ubique, UniProt Q4FM26) | differential scanning fluorimetry | Candidatus Pelagibacter ubique | in-house screen | – | thermal shift | 2.23 °C
Nc1ncnc2c1ncn2[C@@H]1O[C@H](COP(=O)(O)CP(=O)(O)OP(=O)(O)O)[C@@H](O)[C@H]1O | P2X purinoceptor 1 (P2RX1, Homo sapiens, UniProt P51575, K136A) | calcium influx | – | 1 µM | reference: ionomycin response | calcium influx | 89.4% and 85.6% and 77.7%
c1ccc(CCCCCOCCc2ccc3c(c2)CCCN3)cc1 | ATP2A2 | ATPase Vmax increase, activator | pig microsomes | 0.1 to 50 µM | reference: vehicle | Emax | ~40%
